Measured values from different studies.
Numbered parts are unrelated; each lists some results of a single study. “And” joins repeats or separate records; there may be more than shown.
Sequence of UniProt Q99558 (whole entry, looked up): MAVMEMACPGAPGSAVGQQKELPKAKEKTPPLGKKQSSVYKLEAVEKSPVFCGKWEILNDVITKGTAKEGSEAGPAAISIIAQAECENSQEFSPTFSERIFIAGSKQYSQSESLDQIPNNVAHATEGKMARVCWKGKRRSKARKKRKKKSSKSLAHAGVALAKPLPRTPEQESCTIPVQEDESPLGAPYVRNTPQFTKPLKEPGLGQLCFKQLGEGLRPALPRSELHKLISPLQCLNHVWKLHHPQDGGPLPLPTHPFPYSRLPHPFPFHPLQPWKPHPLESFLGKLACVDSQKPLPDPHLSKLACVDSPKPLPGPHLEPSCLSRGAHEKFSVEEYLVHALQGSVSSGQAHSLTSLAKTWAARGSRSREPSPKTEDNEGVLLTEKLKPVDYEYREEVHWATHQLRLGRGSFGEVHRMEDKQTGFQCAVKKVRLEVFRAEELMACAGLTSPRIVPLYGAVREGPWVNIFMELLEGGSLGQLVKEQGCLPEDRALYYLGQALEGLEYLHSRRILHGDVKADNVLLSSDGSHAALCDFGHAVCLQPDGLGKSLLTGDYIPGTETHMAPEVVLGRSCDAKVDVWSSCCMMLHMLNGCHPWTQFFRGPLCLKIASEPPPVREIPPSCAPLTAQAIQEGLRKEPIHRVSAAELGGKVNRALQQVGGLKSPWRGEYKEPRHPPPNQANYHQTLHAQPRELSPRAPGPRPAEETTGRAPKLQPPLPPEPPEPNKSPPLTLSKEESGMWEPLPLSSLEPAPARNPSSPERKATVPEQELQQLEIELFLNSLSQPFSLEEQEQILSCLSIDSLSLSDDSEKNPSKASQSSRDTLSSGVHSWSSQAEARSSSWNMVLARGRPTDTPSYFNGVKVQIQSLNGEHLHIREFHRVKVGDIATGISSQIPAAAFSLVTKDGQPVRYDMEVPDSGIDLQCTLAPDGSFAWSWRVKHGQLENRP
Sequence of UniProt Q99683 (whole entry, looked up): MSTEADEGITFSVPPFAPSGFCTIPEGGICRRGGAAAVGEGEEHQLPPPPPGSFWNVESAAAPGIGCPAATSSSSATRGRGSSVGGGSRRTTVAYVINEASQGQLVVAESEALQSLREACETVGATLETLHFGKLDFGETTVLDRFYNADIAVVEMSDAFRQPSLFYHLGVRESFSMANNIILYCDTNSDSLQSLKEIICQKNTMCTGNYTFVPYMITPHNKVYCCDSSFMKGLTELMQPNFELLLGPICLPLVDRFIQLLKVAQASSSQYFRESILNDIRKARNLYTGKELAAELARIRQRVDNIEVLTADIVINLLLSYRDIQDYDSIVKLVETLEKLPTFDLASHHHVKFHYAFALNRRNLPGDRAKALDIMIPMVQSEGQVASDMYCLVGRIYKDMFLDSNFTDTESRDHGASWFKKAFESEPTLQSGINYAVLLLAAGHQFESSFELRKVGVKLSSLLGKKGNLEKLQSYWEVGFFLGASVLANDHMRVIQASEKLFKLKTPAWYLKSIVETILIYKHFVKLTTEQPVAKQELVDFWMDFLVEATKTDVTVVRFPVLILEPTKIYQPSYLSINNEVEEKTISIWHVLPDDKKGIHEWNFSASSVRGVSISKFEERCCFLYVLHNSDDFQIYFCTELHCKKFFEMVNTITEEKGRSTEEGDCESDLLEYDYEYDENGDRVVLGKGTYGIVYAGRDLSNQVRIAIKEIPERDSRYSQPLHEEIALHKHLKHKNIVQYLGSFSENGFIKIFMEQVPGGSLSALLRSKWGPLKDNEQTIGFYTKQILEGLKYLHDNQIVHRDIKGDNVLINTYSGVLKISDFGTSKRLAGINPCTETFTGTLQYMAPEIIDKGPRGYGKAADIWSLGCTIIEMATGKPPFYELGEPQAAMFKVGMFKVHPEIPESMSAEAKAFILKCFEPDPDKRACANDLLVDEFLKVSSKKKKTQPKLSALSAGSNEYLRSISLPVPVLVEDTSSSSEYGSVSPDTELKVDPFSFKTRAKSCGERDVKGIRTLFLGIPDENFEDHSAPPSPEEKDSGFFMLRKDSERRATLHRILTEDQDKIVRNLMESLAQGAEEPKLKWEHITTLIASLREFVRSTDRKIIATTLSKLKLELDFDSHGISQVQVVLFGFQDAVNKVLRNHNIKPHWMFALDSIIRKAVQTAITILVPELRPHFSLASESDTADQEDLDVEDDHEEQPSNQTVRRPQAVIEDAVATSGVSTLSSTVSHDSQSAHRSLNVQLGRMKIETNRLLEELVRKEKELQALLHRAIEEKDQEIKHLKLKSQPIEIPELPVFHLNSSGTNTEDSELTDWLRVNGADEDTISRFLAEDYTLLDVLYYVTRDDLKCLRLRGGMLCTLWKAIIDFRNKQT
Sequence of UniProt O00329 (whole entry, looked up): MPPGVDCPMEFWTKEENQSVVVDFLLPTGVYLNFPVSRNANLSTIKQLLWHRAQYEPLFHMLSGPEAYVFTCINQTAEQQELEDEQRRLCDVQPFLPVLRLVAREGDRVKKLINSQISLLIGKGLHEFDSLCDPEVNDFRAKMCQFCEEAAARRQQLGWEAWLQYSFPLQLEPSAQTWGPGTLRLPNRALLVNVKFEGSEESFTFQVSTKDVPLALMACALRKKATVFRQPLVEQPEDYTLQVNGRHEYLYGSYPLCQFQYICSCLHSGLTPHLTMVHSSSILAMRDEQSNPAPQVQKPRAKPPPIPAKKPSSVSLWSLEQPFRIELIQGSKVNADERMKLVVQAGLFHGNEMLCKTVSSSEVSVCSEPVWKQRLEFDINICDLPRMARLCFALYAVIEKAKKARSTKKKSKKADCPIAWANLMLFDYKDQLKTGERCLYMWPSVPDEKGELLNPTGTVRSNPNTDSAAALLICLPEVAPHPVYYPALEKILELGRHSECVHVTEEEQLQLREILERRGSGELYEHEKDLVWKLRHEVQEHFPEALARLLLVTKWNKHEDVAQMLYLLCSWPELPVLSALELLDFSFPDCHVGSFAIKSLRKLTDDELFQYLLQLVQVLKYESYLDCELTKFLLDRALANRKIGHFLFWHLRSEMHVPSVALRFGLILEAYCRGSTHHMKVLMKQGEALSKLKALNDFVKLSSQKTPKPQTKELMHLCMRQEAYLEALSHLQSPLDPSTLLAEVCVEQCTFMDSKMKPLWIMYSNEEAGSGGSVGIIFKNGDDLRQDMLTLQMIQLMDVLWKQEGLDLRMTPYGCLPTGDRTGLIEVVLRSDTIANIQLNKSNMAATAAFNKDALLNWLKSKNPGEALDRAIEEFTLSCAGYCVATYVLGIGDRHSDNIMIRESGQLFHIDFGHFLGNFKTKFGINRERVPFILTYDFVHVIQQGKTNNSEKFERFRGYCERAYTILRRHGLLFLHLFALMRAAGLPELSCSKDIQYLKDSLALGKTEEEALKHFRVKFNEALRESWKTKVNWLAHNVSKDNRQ
Sequence of UniProt Q08345 (whole entry, looked up): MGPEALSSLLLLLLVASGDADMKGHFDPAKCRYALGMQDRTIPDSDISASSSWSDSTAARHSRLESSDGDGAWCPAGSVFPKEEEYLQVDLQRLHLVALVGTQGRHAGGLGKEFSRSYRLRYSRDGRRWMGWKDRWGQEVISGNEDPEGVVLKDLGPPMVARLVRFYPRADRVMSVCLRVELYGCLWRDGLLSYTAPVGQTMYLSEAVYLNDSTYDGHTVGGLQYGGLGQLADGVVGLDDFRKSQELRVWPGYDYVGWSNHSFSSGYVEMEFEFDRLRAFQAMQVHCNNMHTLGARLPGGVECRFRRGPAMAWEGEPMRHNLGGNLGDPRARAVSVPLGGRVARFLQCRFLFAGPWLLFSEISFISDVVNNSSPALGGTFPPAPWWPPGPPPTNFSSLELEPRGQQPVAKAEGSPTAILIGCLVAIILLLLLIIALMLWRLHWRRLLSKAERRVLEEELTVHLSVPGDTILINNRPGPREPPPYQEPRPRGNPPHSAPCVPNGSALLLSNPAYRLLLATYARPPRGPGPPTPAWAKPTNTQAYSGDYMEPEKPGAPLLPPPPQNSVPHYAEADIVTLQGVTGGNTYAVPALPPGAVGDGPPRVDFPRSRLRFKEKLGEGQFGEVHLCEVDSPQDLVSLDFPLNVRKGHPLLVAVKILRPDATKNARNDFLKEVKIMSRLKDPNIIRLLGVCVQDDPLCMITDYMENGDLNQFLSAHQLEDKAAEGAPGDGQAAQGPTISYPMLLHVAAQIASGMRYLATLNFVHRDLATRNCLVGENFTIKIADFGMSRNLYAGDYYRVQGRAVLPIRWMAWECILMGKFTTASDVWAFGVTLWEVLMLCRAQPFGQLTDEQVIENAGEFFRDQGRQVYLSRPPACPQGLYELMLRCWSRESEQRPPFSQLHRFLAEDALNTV
Sequence of UniProt P27361 (whole entry, looked up): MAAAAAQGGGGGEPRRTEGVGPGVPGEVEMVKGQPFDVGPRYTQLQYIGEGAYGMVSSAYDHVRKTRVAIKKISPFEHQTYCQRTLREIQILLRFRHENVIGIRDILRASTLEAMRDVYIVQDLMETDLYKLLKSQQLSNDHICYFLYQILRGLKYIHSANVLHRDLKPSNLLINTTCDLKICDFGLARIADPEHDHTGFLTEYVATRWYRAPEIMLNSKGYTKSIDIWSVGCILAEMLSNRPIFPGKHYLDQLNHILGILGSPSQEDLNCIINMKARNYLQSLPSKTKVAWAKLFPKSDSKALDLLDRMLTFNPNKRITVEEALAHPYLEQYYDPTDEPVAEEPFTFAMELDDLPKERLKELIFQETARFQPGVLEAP
Sequence of UniProt Q9Y6M4 (whole entry, looked up): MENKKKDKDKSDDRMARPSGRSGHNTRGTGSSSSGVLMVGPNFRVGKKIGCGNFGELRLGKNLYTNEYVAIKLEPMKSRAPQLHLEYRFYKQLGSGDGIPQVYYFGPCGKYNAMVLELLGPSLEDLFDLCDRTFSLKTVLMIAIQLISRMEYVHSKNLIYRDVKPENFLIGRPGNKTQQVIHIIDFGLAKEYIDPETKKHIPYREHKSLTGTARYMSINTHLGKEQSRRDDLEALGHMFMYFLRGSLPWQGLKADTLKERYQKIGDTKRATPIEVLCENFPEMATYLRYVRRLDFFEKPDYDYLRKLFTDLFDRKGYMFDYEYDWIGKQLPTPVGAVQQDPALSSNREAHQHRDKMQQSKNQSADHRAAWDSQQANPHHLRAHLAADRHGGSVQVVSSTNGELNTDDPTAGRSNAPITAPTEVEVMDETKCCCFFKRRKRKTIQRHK

Block 1
Compound: CC(=O)N[C@@H](Cc1c[nH]c2ccccc12)C(=O)N[C@@H](CCC(=O)C=[N+]=[N-])C(=O)OC(C)C
system	setting	tumour volume
mouse, EL4 tumour	subcutaneous, 0.3 mg/kg, day 8	741 mm3 and 758 mm3 and 531 mm3 and 330 mm3 and 402 mm3 and 228 mm3
CES1-/- mice, OVA-expressing MC-38 tumour	dose not given, day 22 after injection	10 mm3 and 103 mm3 and 0 mm3 and 4 mm3
mouse, EL4 tumour	subcutaneous, 1 mg/kg, day 7	385 mm3 and 557 mm3 and 389 mm3 and 494 mm3 and 280 mm3 and 469 mm3
mice, MC-38 tumour rechallenge	0.26 mg/kg, day 39 after injection	0 mm3
mice, MC-38 tumour rechallenge	0.26 mg/kg, day 64 after injection	0 mm3
mouse, EL4 tumour	subcutaneous, 0.1 mg/kg, day 17	694 mm3 and 559 mm3 and 878 mm3 and 871 mm3 and 2410 mm3 and 78.4 mm3

Block 2 — observed: cell-free assay; technique: competition with immobilised ligand; tested at: 1 µM
SMILES: O=C(Nc1cnc(Oc2ccc(F)cc2)nc1)N1CCc2ncccc2[C@@H]1c1ccc(F)cc1
target	remaining binding [%]
DDR1 (Homo sapiens, UniProt Q08345)	95
MAP3K14 (Homo sapiens, UniProt Q99558)	100
STK3 (Homo sapiens, UniProt Q13188)	100
PIK3CD (Homo sapiens, UniProt O00329)	100
MET (Homo sapiens, UniProt P08581)	100

Block 3 — organism: Sarcocystis neurona; observed: parasite growth; tested at: concentration not given
SMILES	inhibition [%]
CN(C)CCC=C1c2ccccc2CCc2ccccc21.Cl	0.559
NC(=O)OCC(COC(N)=O)c1ccccc1.O	-10.7
C[C@]12CCC(=O)C=C1CC[C@@H]1[C@@H]2[C@@H](O)C[C@@]2(C)[C@H]1CC[C@]2(O)C(=O)COC(=O)CCC(=O)O	-2.9
C[C@]12C=CC(=O)C=C1CC[C@@H]1[C@@H]2[C@@H](O)C[C@@]2(C)[C@H]1CC[C@]2(O)C(=O)COC(=O)CCC(=O)[O-].[Na+]	-8.5
Cc1sc(N)c(C(=O)c2cccc(C(F)(F)F)c2)c1C	-18
C[N+]1(C)CCCC(OC(=O)C(O)(c2ccccc2)c2ccccc2)C1.[Br-] (centres unmarked)	-14.4
CN(C)CC[C@@H](c1ccc(Br)cc1)c1ccccn1.O=C(O)/C=C\C(=O)O (single isomer, unassigned)	-5.9

Block 4 — species: human; sample: microsomes or S9; tested at: 2 µM; time: 0.5 h
SMILES	remaining compound
Fc1ccc2onc(-c3cnc4c(c3)COc3ccccc3-4)c2c1	5.02%
CO[C@@H]1CCOC[C@H]1NS(=O)(=O)c1c(Cl)nc2sccn12	41.9%
O=C(Nc1cc(F)cc(F)c1)N1CCC(O)(CO)C1 (centres unmarked)	98.4%
CC(=O)N1CCC(C(=O)N2CCN(c3cc(Cl)ccc3C)CC2)CC1	88.3%
COc1ccccc1-c1nc(CN(C)S(=O)(=O)c2c(C)cc(C)cc2C)c(C)o1	0.0125%
CC1(C)C=C(N(Cc2ncc[nH]2)c2ccc(Cl)cc2Cl)c2ncccc2O1	0.0985%

Block 5 — SMILES: O=C1Nc2ccccc2/C1=C\c1c(Cl)[nH]c2ccccc12; observed: enzyme activity; action: inhibitor; tested at: 0.5 µM; baseline: control
target	remaining activity [%]
FGFR3 (Homo sapiens, UniProt P22607)	101
WEE1 (Homo sapiens, UniProt P30291)	107
TAOK2 (Homo sapiens, UniProt Q9UL54)	104
GSK3B (Homo sapiens, UniProt P49841)	105
MAP2K2 (Homo sapiens, UniProt P36507)	98.7
CSNK1G3 (Homo sapiens, UniProt Q9Y6M4)	92.8
ULK2 (Homo sapiens, UniProt Q8IYT8)	99.7
NEK6 (Homo sapiens, UniProt Q9HC98)	96.5
TEK (Homo sapiens, UniProt Q02763)	97.1
FGFR1 (Homo sapiens, UniProt P11362)	92
RPS6KA2 (Homo sapiens, UniProt Q15349)	81.1
NEK1 (Homo sapiens, UniProt Q96PY6)	96.7
MAPK3 (Homo sapiens, UniProt P27361)	109
MST1R (Homo sapiens, UniProt Q04912)	97.5
JAK3 (Homo sapiens, UniProt P52333)	102
FRK (Homo sapiens, UniProt P42685)	100
TBK1 (Homo sapiens, UniProt Q9UHD2)	95.9
LCK (Homo sapiens, UniProt P06239)	95.5
MAP3K14 (Homo sapiens, UniProt Q99558)	92.6
MAP3K5 (Homo sapiens, UniProt Q99683)	107
EPHA3 (Homo sapiens, UniProt P29320)	95
MAPKAPK2 (Homo sapiens, UniProt P49137)	101
MERTK (Homo sapiens, UniProt Q12866)	88.2
GRK7 (Homo sapiens, UniProt Q8WTQ7)	106
ACVR1B (Homo sapiens, UniProt P36896)	105

Single results of other studies
SMILES	target	test	system	setting	quantity	value
C=C(F)C(=O)N1CCN(c2nc(OC[C@@H]3CCCN3C)nc3c2CCN(c2cccc4cccc(Cl)c24)C3)C[C@@H]1CC#N	GTPase HRas (HRAS, Homo sapiens, UniProt P01112)	binding, competitor, NanoBRET	HEK293	2.5 µM	normalized BRET	103%

Excerpt of the above (block 5):
target	remaining activity [%]
FGFR1 (Homo sapiens, UniProt P11362)	92
MAP3K5 (Homo sapiens, UniProt Q99683)	107
CSNK1G3 (Homo sapiens, UniProt Q9Y6M4)	92.8
RPS6KA2 (Homo sapiens, UniProt Q15349)	81.1
